Experimental data gathered from unrelated publications.
Compare with care: the assays were run in different laboratories. ± gives the spread as reported.
Cell line: U-87 MG

Structure (SMILES)	assay	setting	how to read	quantity	value
CCCCCCCCCCCCOc1c(O)cc(C(=O)OC2Cc3c(O)cc(O)cc3OC2c2cc(O)c(O)c(O)c2)cc1O (stereo not shown)	Western blot, item: phospho-AKT	50 µM, 24 h	baseline: untreated	phosphorylation level	decreased
Cc1ccc(C(C)C)cc1.[Cl-].[Cl][Ru+].[Ru+].c1ccc(-c2cn(CCCCOc3ccccc3-c3nc4ccccc4s3)nn2)nc1	MTT		baseline: IC50 HEK293 over IC50 U-87 MG	selectivity ratio	1.35
CN1CCc2cc(Nc3ncc(C(F)(F)F)c(NCc4cc[nH]n4)n3)ccc2C1	cell growth or viability, MTT	72 h		IC50	4.02 µM
COc1cc(-c2cc(=O)c3c(O)cc(OC4OC(COC5OC(C)C(O)C(O)C5O)C(O)C(O)C4O)cc3o2)ccc1O (stereo not shown)	cell growth or viability, resazurin	72 h		IC50	42.5 µM
CCCCCCCCCCCCCCOc1c(O)cc(C(=O)O[C@@H]2Cc3c(O)cc(O)cc3O[C@@H]2c2cc(O)c(O)c(O)c2)cc1O	Western blot, item: phospho-AKT	50 µM, 24 h	baseline: untreated	phosphorylation level	decreased
C=C1C(=O)OC2CC3=C[C@@H](C/C(C)=C/C(OC(=O)Cc4cccc5ccccc45)[C@H]12)OC3=O (stereo partly shown)	cell growth or viability, MTT	24 h		IC50	0.34 µM
CC(=O)O[C@H]1C(=O)[C@]2(C)[C@@H](OC(=O)[C@H](N)CSC3CC(=O)N(CCC(=O)Nc4ccc(-c5ccc(/N=N/c6ccc7c(S(=O)(=O)O)cc(S(=O)(=O)O)c(N)c7c6O)c(C)c5)cc4C)C3=O)C[C@H]3OC[C@@]3(OC(C)=O)[C@H]2[C@H](OC(=O)c2ccccc2)[C@]2(O)C[C@H](OC(=O)[C@H](O)[C@@H](NC(=O)c3ccccc3)c3ccccc3)C(C)=C1C2(C)C (stereo partly shown)	annexin V/PI flow cytometry	concentration not given, 24 h		late apoptotic cells	13.2%
CCCCCCCCCCOc1c(O)cc(C(=O)OC2Cc3c(O)cc(O)cc3OC2c2cc(O)c(O)c(O)c2)cc1O (stereo not shown)	western blot	50 µM, 24 h, with: chloroquine 20 µM		LC3-II conversion	no effect
COc1c(O)c(-c2c(O)c(OC)c(OC)c3c2ccc2cc(O)ccc23)c2c(c1OC)-c1ccc(O)cc1CC2	cell growth or viability, CCK-8	24 h		IC50	17.1 µM
C=C(C)[C@@H]1CC[C@]2(COC(=O)CCC(=O)O)CC[C@]3(C)[C@H](CC[C@@H]4[C@@]5(C)CC[C@H](OC(=O)CCC(=O)O)C(C)(C)[C@@H]5CC[C@]43C)[C@@H]12	cell growth or viability, SRB	72 h		IC50	7.37 µg/mL
COc1c(Oc2c(O)c(OC)c(OC)c3c2ccc2cc(O)ccc23)cc2c(c1OC)-c1ccc(O)cc1CC2	cell growth or viability, CCK-8	24 h		IC50	19.9 µM
CC1(C)C(/C=C/C2=C(Cl)C(=C/C=C3/N(CCCCCC(=O)O)c4ccccc4C3(C)C)/C[N+](C)(C)C2)=[N+](CCCCCC(=O)O)c2ccccc21	organelle co-localization, confocal imaging	20 µM, 24 h, mitochondria		Pearson's correlation coefficient	0.56
C=C1C(=O)OC2C1CCC1(C)CC1CCC1(C)OC21 (stereo not shown)	cell growth or viability, resazurin			IC50	11.6 µM
CC1(C)CC(=O)C(C2C([N+](=O)[O-])=C3NCCN3c3nc4ccccc4cc32)=C(O)C1 (stereo not shown)	cell growth or viability, MTT	48 h		IC50	10.8 µM
CCCCCCCCOc1c(O)cc(C(=O)OC2Cc3c(O)cc(O)cc3OC2c2cc(O)c(O)c(O)c2)cc1O (stereo not shown)	cell viability, CCK-8	24 h		IC50	40.79 ± 0.13 µM
CC1OC(OCC2OC(Oc3cc(O)c4c(=O)cc(-c5ccc(O)c(O)c5)oc4c3)C(O)C(O)C2O)C(O)C(O)C1O (stereo not shown)	cell growth or viability, resazurin	72 h		IC50	46.7 µM

Some of these lines once more:
Structure (SMILES)	assay	setting	how to read	quantity	value
CCCCCCCCCCCCOc1c(O)cc(C(=O)OC2Cc3c(O)cc(O)cc3OC2c2cc(O)c(O)c(O)c2)cc1O (stereo not shown)	Western blot, item: phospho-AKT	50 µM, 24 h	baseline: untreated	phosphorylation level	decreased
